Results collected from several papers.
Each numbered part is a random draw from the data of one study; scales do not carry over between parts. Changes are numbered by the printed parent chain.

Series 1 — target: CEP164, C-terminal peptide (human); method: DHFR complementation, deep sequencing; medium: yeast; relative to: wild type; direction: higher = weaker binding
Notes: single substitutions, model-inferred values
Starting sequence: PDZK1, PDZ domain 2 (human); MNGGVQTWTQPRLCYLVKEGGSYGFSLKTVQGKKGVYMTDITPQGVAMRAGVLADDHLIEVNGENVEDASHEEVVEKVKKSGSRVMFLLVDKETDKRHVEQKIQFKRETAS; partner HNRVKVYRF
| Variant | binding free energy change |
| --- | --- |
| M38F | 0.224 kcal/mol |
| A110R | -0.134 kcal/mol |
| V78K | 1.44 kcal/mol |
| D68R | 0.0751 kcal/mol |
| F87E | 1.58 kcal/mol |
| Y37M | 0.356 kcal/mol |
| V17K | -0.184 kcal/mol |
| N2K | -0.0557 kcal/mol |

Series 2 — method: DNA-protein interaction ELISA; form: double-stranded DNA, one strand shown; medium: in vitro, bacterial lysate; tested at: not given; notes: whole dsDNA probe, crude lysate protein; relative to: highest signal in screen; direction: higher = stronger binding
Target: Probable WRKY transcription factor 33, C-terminal DNA-binding domain (WRKY33, Arabidopsis thaliana, UniProt Q8S8P5, residues 346-449)
Construct (chain): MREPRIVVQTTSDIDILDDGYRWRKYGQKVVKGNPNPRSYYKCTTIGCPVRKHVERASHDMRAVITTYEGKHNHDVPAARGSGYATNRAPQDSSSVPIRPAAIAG
| Strand | relative absorbance |
| --- | --- |
| AAAAAATGGTTTCAATTTTCCGTCCGAAAA | 32.2 % of maximum |
| AAAAAATCGGTACGCACCCCGGACTCAAAA | 54 % of maximum |
| AAAAAATTGGTTCTCATTTCTACTTCAAAA | 41.1 % of maximum |
| AAAAAAGCGGTAGATGCGCAACTGTGAAAA | 32.8 % of maximum |
| AAAAAATATCCTATTCTAATTTATATAAAA | 41 % of maximum |
| AAAAAAGCGTAAGCCTTGACAGTCGTAAAA | 66.4 % of maximum |
| AAAAAACTTCTAGTTTATGCTTCCGTAAAA | 33.3 % of maximum |
| AAAAAACTGGTGTATCTCCTCAATTAAAAA | 34 % of maximum |

Series 3 — target: OGT, full length, His-tagged (human); method: phage display, sequencing; medium: in vitro; tested at: 1 µg OGT; relative to: input library; direction: higher = stronger binding; starting sequence: peptide; GDFPVMFMPKYSIIY
Notes: single substitutions, 15-mer displayed peptide, unchanged parent 5.27
| Variant | fold enrichment [fold] |
| --- | --- |
| GDFPVMFMPKYSPIY [I13P] | 0.964 |
| GDFPVMFMPKYSISY [I14S] | 1.84 |
| GDFPVMFMPKPSIIY [Y11P] | 1.11 |
| GDLPVMFMPKYSIIY [F3L] | 4.54 |
| GDFPVGFMPKYSIIY [M6G] | 1.59 |
| GDFPVMAMPKYSIIY [F7A] | 0.809 |
| GDFPVSFMPKYSIIY [M6S] | 6.83 |
| GTFPVMFMPKYSIIY [D2T] | 5.82 |

Further values, each from its own experiment — starting sequence: viral docking peptide; CKVKRKLFGSENI
| Variant | target | assay | system | conditions | scale | endpoint | result |
| --- | --- | --- | --- | --- | --- | --- | --- |
| G9A | CCNE2, cyclin fold, Cln2 fusion (human) | yeast growth competition, sequencing | yeast | strong parent motif | relative to: not given, higher = stronger binding | normalised enrichment score | 4.64 |
